Experimental data of several laboratories.
Protocols differ between the studies behind these lines. ± marks the error that the study gave. In brackets after ≈: the same amount, converted by molar mass.

| Molecule | assay | system | setting | how to read | measurement | value |
| --- | --- | --- | --- | --- | --- | --- |
| O=c1cc(-c2ccc(O)c(-c3c(O)cc(O)c4c(=O)cc(-c5ccc(O)cc5)oc34)c2)oc2cc(O)cc(O)c12 | UV-vis pH titration | ethanol-water, 0.1 M NaCl | 25 µM, 25 °C, fifth pKa, phenol deprotonation |  | pKa | 11 |
| CCN(CC)C(=S)S | enzyme activity, inhibitor | human liver microsomes | 40 µM, 10 min preincubation, with: rosiglitazone 10 µM |  | inhibition | 41% |
| Oc1ccc(/C=C/c2cc3ccc4cccc5ccc(c2)c3c45)cc1O |  | water | aggregation above range |  | linear absorbance range | ≤ 2 µM |
| C[C@@H](O)[C@H]1C(=O)N2C(C(=O)O)=C(S[C@@H]3CN[C@H](C(=O)N(C)C)C3)[C@H](C)[C@H]12 |  | pig, Danish Landrace, plasma | intravenous, 1000 mg over 10 min, 450 min dosing interval, with: 2.0 µg/mL MIC | reference: dosing interval | time above MIC | 40% |
| C[C@@H]1C[C@@H](n2cnc(C(N)=O)c2N)[C@H](O)[C@H]1O |  | mouse, plasma | oral vs intravenous |  | oral bioavailability | ~30% |
| acyl ghrelin (human) |  | mouse, wild type, thalamus | intravenous, 10 min |  | brain/serum ratio | 6.17 µL/g |
| C#Cc1c(F)ccc2cc(O)cc(-c3ncc4c(N5CC6CCC(C5)N6)nc(OC[C@@]56CCCN5C[C@H](F)C6)nc4c3F)c12 |  | female Balb/c nude mouse, tumour model | oral, 126 mg/kg twice daily of prodrug, 2 h after last dose |  | tumour concentration | 2110 ng/g |
| CN(C)Cc1cc(OCCC[18F])ccc1Sc1ccccc1N |  | male Sprague-Dawley rats, saline control, cerebellum | intravenous, dose not given, 60 min |  | tissue uptake | 0.14 ± 0.04 %ID/g |
| CN(C)Cc1c(C(=O)NCCOc2ccc(C(=O)NO)cc2)oc2ccccc12 |  | human, plasma | oral, 60 mg, single dose on day -3 |  | half-life (median) | 8.31 h |
| O=C1N=C(N2CCOCC2)CN1c1ccc(Cl)cc1 |  | beagle dog, both sexes, plasma | oral, 30 mg/kg, tablets, fasted, day 5 |  | terminal half-life | 1.39 h |
| CCCOc1ccc([C@H]2CNC(=O)N2c2ccc3[nH]cnc3c2)cc1 |  | human volunteers fasted, plasma | oral solution, 50 mg single dose, day 1, geometric mean |  | effective half-life | 2.25 h |
| C[C@](N)(Cc1ccc(O)c(O)c1)C(=O)O | static gravimetric method | supercritical CO2, 871.5 kg/m3 | 5 h, 323 K, pressure 30 MPa |  | solubility | 369 µg/mL (≈ 1750 µM) |
| O=C(CCc1ccccc1)c1cc(F)ccc1OCC(O)CN1CCN(C(c2ccccc2)c2ccccc2)CC1 (stereo not shown) | metabolic stability | human, liver microsomes | 20 µM, pH 7.4 |  | scaled CLint | 13 mL/min/kg |
| CCCCC1=NC2(CCCC2)C(=O)N1Cc1ccc(-c2ccccc2S(=O)(=O)Nc2noc(C)c2C)c(COCC)c1 |  | human female reference subject, plasma | oral, 800 mg, population PK model |  | steady-state clearance | 120 mL/min |
| CC(C)C[C@H](NC(=O)[C@H](CCCNC(=N)N)NC(=S)Nc1ccc(C[C@H]2CN(CC(=O)O)CCN(CC(=O)O)CCN2CC(=O)O)cc1)C(=O)N[C@@H](CC(N)=O)C(=O)N[C@H](C(=O)NCC(=O)NCC(=O)N[C@H](C(=O)N[C@@H](Cc1ccc(O)cc1)C(=O)N[C@@H](Cc1ccccc1)C(=O)N[C@@H](CC(C)C)C(=O)N[C@H](C(=O)N[C@H](C(=O)N[C@@H](CCCNC(=N)N)C(=O)N[C@@H](CCC(N)=O)C(=O)O)[C@@H](C)O)[C@@H](C)O)[C@@H](C)O)C(C)C [fluorine-18 labelled] | radio-HPLC | mouse (HepG2 tumour-bearing), urine | intravenous, 5.55 MBq, 1 h |  | intact parent radiotracer | 3.31 ± 0.2% |
| COc1cc(C(=O)N2CCC3(CC2)CC(=O)c2c(cnn2C(C)C)C3)cc(-c2ccc(C(=O)O)cc2)n1 | refers to: ALT | human | 15 mg twice daily, 7 days |  | liver enzyme elevation | 2.8 × ULN |
| O=C1Nc2c(C(=O)O)ccnc2N(C2CC2)c2ncccc21 |  | olive baboon (Papio anubis), non-pregnant, serum | oral, 10 mg/kg of nevirapine, solution, single dose |  | AUC(0-8 h) | 1080 ± 441 ng·h/mL |
| COc1cc(CNC(=O)CCCCC=CC(C)C)ccc1O | eye-wiping | C57BL/6 mice, both sexes | ocular instillation, 1 min |  | moderate pain-producing concentration | 0.041 mg/mL |
| CC(=O)O[C@H]1C(=O)[C@@]2(C)[C@H]([C@H](OC(=O)c3ccccc3)[C@]3(O)C[C@H](OC(=O)[C@H](O)[C@@H](NC(=O)c4ccccc4)c4ccccc4)C(C)=C1C3(C)C)[C@]1(OC(C)=O)CO[C@@H]1C[C@@H]2O | ELISA | C57BL/6 mouse, B16/F10 tumour, tumour homogenate | intravenous, 2.5 mg/kg |  | tumour concentration | 25 ng/mL |
| C[C@H]1C[C@H]2CSC(N)=N[C@@]2(c2nc(NC(=O)c3ccc(OC(F)F)cn3)cs2)CO1 |  | human | projected supratherapeutic dose, upper confidence bound |  | QTcF increase | < 10 ms |
| Cc1cc(C)c(C#N)c(SCC(=O)c2ccccc2)n1 | metabolic stability | human, liver microsomes | 0.5 µM, pH 7.4 |  | microsomal CLint | 735 µL/min/mg |
| CC(C)(CC(=O)N1CCCC1)NCC(=O)N1C[C@@H](F)C[C@H]1C#N |  | Chinese type 2 diabetes patients, plasma | oral, 50, 100, 200 mg, multiple once-daily doses, range of group means |  | steady-state half-life | 7.4 to 10.2 h |
| O=C(O)COC[C@H]1CC[C@H](COC(=O)N(c2ccccc2)c2ccc(Cl)cc2)CC1 |  | human | oral, 10 µg twice daily, steady state |  | effective half-life | 17.5 h |

| Molecule | assay | system | setting | how to read | measurement | value |
| --- | --- | --- | --- | --- | --- | --- |
| CS(=O)(=O)n1cc2c(n1)CN([C@H]1CO[C@H](c3cc(F)ccc3F)[C@@H](N)C1)C2 |  | healthy male human, plasma | oral, 25 mg once weekly, day 15, fasted, geometric mean |  | concentration at 168 h | 17.1 nM |
| CS/C(S)=N/CCCC[S+](C)[O-] (racemic) | RT-PCR, refers to: Cyp2b15 | rat, mammary gland | oral gavage, 200 mg/kg, dosed for four days | reference: vehicle | mRNA fold change | 0.095 |
| CC(=O)N[C@@H](CCCNC(=N)N)C(=O)N[C@@H](C)C(=O)N[C@@H](CC(=O)O)C(=O)N[C@@H](C)C(=O)N[C@@H](CCCNC(=N)N)C(=O)N[C@@H](C)C(=O)N[C@@H](CC(=O)O)C(=O)N[C@@H](C)C(=O)N[C@@H](CCCNC(=N)N)C(=O)N[C@@H](C)C(=O)N[C@@H](CC(=O)O)C(=O)N[C@@H](C)C(=O)N[C@@H](CCCNC(=N)N)C(=O)N[C@@H](C)C(=O)N[C@@H](CC(=O)O)C(=O)N[C@@H](C)C(N)=O | rotational rheometry | 2.5% w/v aqueous solution | shear rate range 1-1000 s^-1 |  | viscosity | 2510 ± 68.1 Pa·s |
| Oc1ccc(-c2nc(-c3ccc(Oc4ccccc4)cc3)no2)cc1 |  | ICR mice, plasma | intravenous, 50 mg/kg |  | initial half-life | 2.4 min |
| Cc1nc2cccc(OCC(C)(C)C(=O)NC(C)C)c2c(N)c1C(=O)O |  | female Sprague-Dawley rat, plasma | dietary, 60 mg/kg/day, day 90 |  | Tmax | 3 h |
| O=C(O)Cc1ccccc1Nc1c(Cl)cccc1Cl |  | human liver microsomes | 30 min, with: NADPH |  | remaining compound | 33 ± 4.9% |
| NCCCC[C@@H]1NC(=O)[C@@H](Cc2c[nH]c3ccccc23)NC(=O)[C@H](c2ccccc2)NC(=O)[C@@H]2C[C@@H](OC(=O)NCCN)CN2C(=O)[C@H](Cc2ccccc2)NC(=O)[C@H](Cc2ccc(OCc3ccccc3)cc2)NC1=O |  | healthy human volunteers | subcutaneous, 600 µg, 2 h, post-prandial |  | blood glucose | 173 mg/dL |
| O=C(c1nc2n(n1)[C@H](c1ccccc1)C[C@@H]2F)C1CC1 |  | human, plasma | oral, 225 mg, 24 h, single dose, fasted, healthy volunteers |  | concentration | 924 ng/mL |
| CC(C)(Sc1ccncc1-c1ccc(C#N)c2ccccc12)C(=O)O |  | human, male, Japanese, plasma | oral, 2.5 mg, day 1, fasted, single dose |  | t1/2 | 10.4 h |
| des-acyl ghrelin (human) |  | mouse, Ghsr knockout, cortex | intravenous, 10 min |  | brain/serum ratio | 6.75 µL/g |
| CN1CC[C@@H](NC(=O)Nc2ccc(C#N)cc2)C[C@@H]1c1nc2ccccc2[nH]1 |  | normal hepatic function, plasma | oral, 100 mg single dose, fasted, arithmetic mean |  | AUC(0-inf), unbound | 889 ± 303 ng·h/mL |
| Cc1cc(Nc2ncc(Cl)c(Nc3ccccc3S(=O)(=O)C(C)C)n2)c(OC(C)C)cc1C1CCNCC1 | refers to: total drug | patients, plasma | oral, 750 or 450 mg/day, 23.7 h, arithmetic mean |  | Css,min | 936 nM |
| CC(C)=CCC[C@](C)(O[C@@H]1O[C@H](CO[C@@H]2O[C@H](CO)[C@@H](O)[C@H](O)[C@H]2O)[C@@H](O)[C@H](O)[C@H]1O)[C@H]1CC[C@]2(C)[C@@H]1[C@H](O)C[C@@H]1[C@@]3(C)CC[C@H](O[C@@H]4O[C@H](CO)[C@@H](O)[C@H](O)[C@H]4O[C@@H]4O[C@H](CO)[C@@H](O)[C@H](O)[C@H]4O)C(C)(C)[C@@H]3CC[C@]12C |  | Sprague Dawley rat, male, plasma | oral, 86 mg/kg, in frozen ginseng extract |  | CL/F | 2.67 ± 0.333 mL/min/kg |
| CCOc1c([C@H](C)n2nc(C)c3c(N)ncnc32)cc(Cl)c(F)c1[C@@H]1CNC(=O)C1 |  | healthy fasted humans, plasma | oral, 20 mg |  | terminal half-life geometric mean | 14.2 h |
| CCCC[C@H](NC(C)=O)C(=O)N[C@H]1CCC(=O)NC[C@@H](C(=O)N[C@@H](Cc2c[nH]c3ccccc23)C(N)=O)NC(=O)[C@H](CCCNC(=N)N)NC(=O)[C@@H](Cc2ccccc2)NC(=O)[C@H](Cc2c[nH]cn2)NC1=O |  | beagle dog, female, plasma | subcutaneous, 8.0 mg/kg daily, day 1 |  | Tmax | 1 h |
| CNC(=O)c1ccc(-c2cnc3ncc(Cc4ccc5ncccc5c4)n3n2)cc1F |  | human, mild hepatic impairment (Child-Pugh A), plasma | oral, 200 mg single dose |  | half-life (geometric mean) | 5.37 h |
| Cn1c(-c2ccc(C(N)=O)cc2F)nnc1C(C)(C)Oc1c(F)cc(Cl)cc1F |  | young non-Japanese subjects, plasma | oral, 2 mg single dose, day 1, mean |  | AUC(0-inf) | 48 ng·h/mL |
| C=C(C)[C@@H]1CC[C@]2(NCCN3CCS(=O)(=O)CC3)CC[C@]3(C)[C@H](CC[C@@H]4[C@@]5(C)CC=C(C6=CC[C@@](CF)(C(=O)O)CC6)C(C)(C)[C@@H]5CC[C@]43C)[C@@H]12 |  | human, plasma | oral, 200 mg once daily, day 14 |  | terminal half-life | 22.1 h |
| CC1=C2C[C@H]3[C@@H](CC[C@@H]4C[C@H](NS(C)(=O)=O)CC[C@@]43C)[C@@H]2CC[C@@]2(C1)O[C@@H]1C[C@H](C)CN[C@H]1[C@H]2C |  | patients, plasma | oral, 60 mg single, day -7, cycle 1 |  | Tmax | 4 h |
| Cc1cc(C)c2c(c1)[C@@H](N(Cc1cc(C(F)(F)F)cc(C(F)(F)F)c1)c1nnn(C)n1)CCCN2C[C@H]1CC[C@H](C(=O)O)CC1 | LC-MS/MS | human, plasma | oral, 10 mg once daily, steady state |  | t1/2 | 23.6 h |
| [2H]C([2H])([2H])Oc1cc2c(cc1OC([2H])([2H])[2H])C1CC(=O)C(CC(C)C)CN1CC2 (stereo not shown) | refers to: total (α+β)-HTBZ | human, fasted | oral, 15 mg single dose | reference: tetrabenazine 25 mg fasted | geometric mean ratio Cmax | 34.4% |
| Nc1nc(N)c2nc(CNc3ccc(C(=O)N[C@@H](CCC(=O)O)C(=O)O)cc3)cnc2n1 |  | male beagle dogs, plasma | intravenous and subcutaneous, range over both routes |  | terminal half-life | 2 to 2.74 h |
| CC(C)c1nc(CN(C)C(=O)N[C@H](C(=O)N[C@@H](Cc2ccccc2)C[C@H](O)[C@H](Cc2ccccc2)NC(=O)OCc2cncs2)C(C)C)cs1 |  | healthy men, plasma | 600 mg single dose, with: amenamevir 1200 mg |  | AUC(0-t) geometric mean | 72600 ng·h/mL |

Some of these lines once more:
| Molecule | assay | system | setting | how to read | measurement | value |
| --- | --- | --- | --- | --- | --- | --- |
| C[C@@H](O)[C@H]1C(=O)N2C(C(=O)O)=C(S[C@@H]3CN[C@H](C(=O)N(C)C)C3)[C@H](C)[C@H]12 |  | pig, Danish Landrace, plasma | intravenous, 1000 mg over 10 min, 450 min dosing interval, with: 2.0 µg/mL MIC | reference: dosing interval | time above MIC | 40% |
| C[C@@H]1C[C@@H](n2cnc(C(N)=O)c2N)[C@H](O)[C@H]1O |  | mouse, plasma | oral vs intravenous |  | oral bioavailability | ~30% |
| acyl ghrelin (human) |  | mouse, wild type, thalamus | intravenous, 10 min |  | brain/serum ratio | 6.17 µL/g |
| C#Cc1c(F)ccc2cc(O)cc(-c3ncc4c(N5CC6CCC(C5)N6)nc(OC[C@@]56CCCN5C[C@H](F)C6)nc4c3F)c12 |  | female Balb/c nude mouse, tumour model | oral, 126 mg/kg twice daily of prodrug, 2 h after last dose |  | tumour concentration | 2110 ng/g |
| CN(C)Cc1cc(OCCC[18F])ccc1Sc1ccccc1N |  | male Sprague-Dawley rats, saline control, cerebellum | intravenous, dose not given, 60 min |  | tissue uptake | 0.14 ± 0.04 %ID/g |
| CN(C)Cc1c(C(=O)NCCOc2ccc(C(=O)NO)cc2)oc2ccccc12 |  | human, plasma | oral, 60 mg, single dose on day -3 |  | half-life (median) | 8.31 h |
